Values quoted from earlier work as cited in several papers.
Each line is one published result; not all experiments were run side by side.
UniProt Q8TF76, sequence (whole entry, looked up): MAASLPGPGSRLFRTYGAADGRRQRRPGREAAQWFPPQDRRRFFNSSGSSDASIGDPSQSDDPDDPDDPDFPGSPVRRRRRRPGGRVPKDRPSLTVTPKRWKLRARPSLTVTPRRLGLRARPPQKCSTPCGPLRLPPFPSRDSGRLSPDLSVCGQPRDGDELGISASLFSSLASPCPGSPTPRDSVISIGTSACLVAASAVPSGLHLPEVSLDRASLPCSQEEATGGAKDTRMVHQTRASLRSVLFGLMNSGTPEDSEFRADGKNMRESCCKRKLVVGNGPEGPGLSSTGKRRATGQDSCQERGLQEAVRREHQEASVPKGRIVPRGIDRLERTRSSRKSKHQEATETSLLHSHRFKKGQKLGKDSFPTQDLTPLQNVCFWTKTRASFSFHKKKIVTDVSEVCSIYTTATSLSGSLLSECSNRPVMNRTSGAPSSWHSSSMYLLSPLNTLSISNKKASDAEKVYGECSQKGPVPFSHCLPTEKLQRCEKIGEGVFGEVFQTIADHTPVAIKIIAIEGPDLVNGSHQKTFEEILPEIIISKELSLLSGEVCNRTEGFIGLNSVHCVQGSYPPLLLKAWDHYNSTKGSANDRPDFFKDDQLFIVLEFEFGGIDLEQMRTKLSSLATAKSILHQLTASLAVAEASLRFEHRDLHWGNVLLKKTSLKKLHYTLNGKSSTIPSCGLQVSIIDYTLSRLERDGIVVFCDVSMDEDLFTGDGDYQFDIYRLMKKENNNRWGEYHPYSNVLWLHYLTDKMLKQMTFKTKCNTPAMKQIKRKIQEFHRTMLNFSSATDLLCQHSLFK

C/C(=C\C(=O)OCCCCCCCCC(=O)O)C[C@@H]1OC[C@](O)(C[C@@H]2O[C@H]2[C@@H](C)[C@H](C)O)[C@@H](O)[C@H]1O  MIC (Staphylococcus aureus; Newman): 4 µM
CO[C@H]1/C=C/O[C@@]2(C)Oc3c(C)c(O)c4c(O)c(c(/C=N/N5CCN(C)CC5)c(O)c4c3C2=O)NC(=O)/C(C)=C\C=C\[C@H](C)[C@H](O)[C@@H](C)[C@@H](O)[C@@H](C)[C@H](OC(C)=O)[C@@H]1C  MIC (Staphylococcus aureus): 8 mg/L
CCOC(=O)C(c1c(O)ccc2ccccc12)N1CCOCC1 (stereo not shown)  relative fluorescence index (Staphylococcus aureus; efflux pump inhibition; ATCC 25923; 100 µM; relative to: untreated cells): 0.87
O=C1O[C@H]2[C@@H]3OC(=O)c4cc(O)c(O)c(O)c4-c4c(O)c(O)c5oc(=O)c6c(c(O)c(O)c7oc(=O)c4c5c76)-c4c(cc(O)c(O)c4O)C(=O)OC[C@H]3OC(O)[C@@H]2OC(=O)c2cc(O)c(O)c(O)c2-c2c1cc(O)c(O)c2O (mixture of isomers)  MIC (Staphylococcus aureus): 250 mg/L
COc1cc2c(cc1OC)C(c1c[nH]c3ncccc13)NCC2 (stereo not shown)  relative fluorescence index (Staphylococcus aureus; efflux pump inhibition; ATCC 25923; 50 µM; relative to: untreated cells): 0.3
CC(C)(O/N=C(\C(=O)N[C@@H]1C(=O)N2C(C(=O)[O-])=C(C[n+]3ccccc3)CS[C@H]12)c1csc(N)n1)C(=O)O  MIC (Klebsiella pneumoniae; clinical isolate RKI-No_107/15): ≤ 2 mg/L
O=C(/C=C/c1ccccc1)c1ccccc1  MIC (Staphylococcus aureus): > 4860 µM
CCN1CCN(c2cc3c(cc2F)c(=O)c(C(=O)O)cn3C2CC2)CC1  MIC (Staphylococcus aureus): 0.5 mg/L
Oc1ccc(-c2nc(-c3ccc(OC4CCCC4)cc3)no2)cc1  MIC (Staphylococcus aureus; ATCC 27660 mecA-positive): 2 to 4 mg/L
CCOC(=O)C(c1ccc2ccccc2c1O)N1CCOCC1 (stereo not shown)  relative fluorescence index (Staphylococcus aureus; efflux pump inhibition; ATCC 25923; 100 µM; relative to: untreated cells): -0.72
COc1ccc2cc3[n+](cc2c1OC)CCc1cc2c(cc1-3)OCO2  MIC (Staphylococcus aureus): 128 mg/L
CC[C@H](C)[C@H](NC(=O)CN)C(=O)NCC(=O)N[C@@H](CCCCN)C(=O)N[C@@H](Cc1ccccc1)C(=O)N[C@@H](CC(C)C)C(=O)N[C@@H](CCCCN)C(=O)N[C@@H](CCCCN)C(=O)N[C@@H](C)C(=O)N[C@@H](CCCCN)C(=O)N[C@@H](CCCCN)C(=O)N[C@@H](Cc1ccccc1)C(=O)NCC(=O)N[C@@H](CCCCN)C(=O)N[C@@H](C)C(=O)N[C@@H](Cc1ccccc1)C(=O)N[C@H](C(=O)N[C@@H](CCCCN)C(=O)N[C@H](C(=O)N[C@@H](CC(C)C)C(=O)N[C@@H](CCCCN)C(=O)N[C@@H](CCCCN)C(N)=O)[C@@H](C)CC)C(C)C  MIC (Staphylococcus aureus; ATCC 33591): 32 mg/L
CC1(C)S[C@@H]2[C@H](NC(=O)[C@H](N)c3ccccc3)C(=O)N2[C@H]1C(=O)O  MIC (Acinetobacter baumannii; clinical isolate RKI-No_13/16): > 16 mg/L
c1ccc2c(c1)CCNC2c1c[nH]c2ccccc12 (stereo not shown)  relative fluorescence index (Staphylococcus aureus; efflux pump inhibition; ATCC 25923; 50 µM; relative to: untreated cells): -0.18
CS(=O)(=O)c1ccc([C@@H](O)[C@@H](CF)NC(=O)C(Cl)Cl)cc1  MIC (Staphylococcus aureus): 64 mg/L
Nc1cc(C(F)(F)F)c(-c2nc(N3CCOCC3)nc(N3CCOCC3)n2)cn1  remaining activity (HASPIN (Homo sapiens, UniProt Q8TF76); enzyme activity; 10 µM; relative to: untreated): 70%

A few entries again:
CCOC(=O)C(c1ccc2ccccc2c1O)N1CCOCC1 (stereo not shown)  relative fluorescence index (Staphylococcus aureus; efflux pump inhibition; ATCC 25923; 100 µM; relative to: untreated cells): -0.72
